Experimental data from different studies.
“And” joins repeats or separate records; there may be more than shown. Numbers after ± are the reported error.
ADCYAP1R1: Pituitary adenylate cyclase-activating polypeptide type I receptor (ADCYAP1R1, Homo sapiens, UniProt P41586)
Sequence of UniProt P41586 (whole entry, looked up): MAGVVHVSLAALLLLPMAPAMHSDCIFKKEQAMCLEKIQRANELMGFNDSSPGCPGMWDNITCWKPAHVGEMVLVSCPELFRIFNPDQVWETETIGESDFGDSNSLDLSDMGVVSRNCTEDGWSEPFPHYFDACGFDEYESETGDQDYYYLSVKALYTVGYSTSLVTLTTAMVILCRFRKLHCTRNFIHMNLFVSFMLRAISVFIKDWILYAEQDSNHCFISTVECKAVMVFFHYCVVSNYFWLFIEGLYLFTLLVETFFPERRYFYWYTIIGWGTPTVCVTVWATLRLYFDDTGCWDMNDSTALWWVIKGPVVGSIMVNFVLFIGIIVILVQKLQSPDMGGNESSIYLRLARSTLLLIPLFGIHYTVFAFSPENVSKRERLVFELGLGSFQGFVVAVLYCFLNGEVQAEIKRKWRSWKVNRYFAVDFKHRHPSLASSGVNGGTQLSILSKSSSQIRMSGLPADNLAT
Carbonic anhydrase: Carbonic anhydrase (Vibrio cholerae serotype O1, UniProt Q9KMP6)
F2: Prothrombin (F2, Homo sapiens, UniProt P00734)
Sequence of UniProt Q9JI35 (whole entry, looked up): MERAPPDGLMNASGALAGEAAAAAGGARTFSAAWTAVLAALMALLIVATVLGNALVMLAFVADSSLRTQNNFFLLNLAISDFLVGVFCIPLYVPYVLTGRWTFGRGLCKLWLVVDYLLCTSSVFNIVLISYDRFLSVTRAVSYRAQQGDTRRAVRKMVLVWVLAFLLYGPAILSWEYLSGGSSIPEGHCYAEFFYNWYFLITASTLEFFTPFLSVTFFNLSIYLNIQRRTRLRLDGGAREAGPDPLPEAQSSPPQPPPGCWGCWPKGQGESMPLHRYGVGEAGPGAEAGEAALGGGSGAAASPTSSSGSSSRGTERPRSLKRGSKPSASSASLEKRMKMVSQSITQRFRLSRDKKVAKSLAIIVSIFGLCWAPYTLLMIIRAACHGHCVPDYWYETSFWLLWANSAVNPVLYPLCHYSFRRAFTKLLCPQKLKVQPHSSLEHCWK
Sequence of UniProt P41143 (whole entry, unmodified, looked up): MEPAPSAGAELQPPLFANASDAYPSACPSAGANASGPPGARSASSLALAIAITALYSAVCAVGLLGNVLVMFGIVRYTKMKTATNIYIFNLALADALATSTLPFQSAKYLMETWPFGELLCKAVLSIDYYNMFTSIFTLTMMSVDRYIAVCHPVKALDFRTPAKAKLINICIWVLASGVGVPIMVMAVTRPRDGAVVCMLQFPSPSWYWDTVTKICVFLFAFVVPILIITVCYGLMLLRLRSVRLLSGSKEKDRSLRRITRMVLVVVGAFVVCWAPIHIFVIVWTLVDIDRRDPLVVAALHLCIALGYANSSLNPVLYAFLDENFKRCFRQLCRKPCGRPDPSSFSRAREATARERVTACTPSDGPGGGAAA

Compound	target or system	test	test system	conditions	scale	endpoint	value
CSCC[C@H](NC(=O)[C@H](CCC(N)=O)NC(=O)[C@H](CCCCN)NC(=O)[C@H](CCCNC(=N)N)NC(=O)[C@H](Cc1ccc(O)cc1)NC(=O)[C@H](CCCNC(=N)N)NC(=O)[C@H](CO)NC(=O)[C@H](Cc1ccc(O)cc1)NC(=O)[C@H](CO)NC(=O)[C@H](CC(=O)O)NC(=O)[C@@H](NC(=O)[C@@H](N)Cc1ccccc1)[C@@H](C)O)C(=O)N[C@@H](C)C(=O)N[C@H](C(=O)N[C@@H](CCCCN)C(=O)N[C@@H](CCCCN)C(=O)N[C@@H](Cc1ccc(O)cc1)C(=O)N[C@@H](CC(C)C)C(=O)N[C@@H](C)C(=O)N[C@@H](C)C(=O)N[C@H](C(=O)N[C@@H](CC(C)C)C(=O)NCC(=O)N[C@@H](CCCCN)C(=O)N[C@@H](CCCNC(=N)N)C(=O)N[C@@H](Cc1ccc(O)cc1)C(=O)N[C@@H](CCCCN)C(=O)N[C@@H](CCC(N)=O)C(=O)N[C@@H](CCCCn1cc(C[C@H](NC(=O)CNC(=O)[C@H](CO)NC(=O)[C@H](CCCNC(=N)N)NC(=O)[C@H](CO)NC(=O)[C@H](CC(C)C)NC(=O)[C@H](CC(C)C)NC(=O)CNC(=O)[C@H](C)NC(=O)[C@H](CC(C)C)NC(=O)[C@H](CCCNC(=N)N)NC(=O)[C@H](Cc2c[nH]cn2)NC(=O)[C@@H](NC(=O)[C@@H](N)C(C)C)[C@@H](C)O)C(=O)N[C@H](C(=O)N[C@H](C(=O)N[C@@H](CCCCN)C(=O)N[C@@H](CC(N)=O)C(=O)N[C@@H](CC(N)=O)C(=O)N[C@@H](Cc2ccccc2)C(=O)N[C@H](C(=O)N2CCC[C@H]2C(=O)N[C@H](C(=O)N[C@@H](CC(N)=O)C(=O)N[C@H](C(=O)NCC(=O)N[C@@H](CO)C(=O)N[C@@H](CCCCN)C(=O)N[C@@H](C)C(=O)N[C@@H](Cc2ccccc2)C(N)=O)C(C)C)[C@@H](C)O)C(C)C)C(C)C)C(C)C)nn1)C(=O)N[C@H](C(=O)N[C@@H](CCCCN)C(=O)N[C@@H](CC(N)=O)C(=O)N[C@@H](CCCCN)C(N)=O)C(C)C)C(C)C)C(C)C	ADCYAP1R1	cAMP accumulation, antagonist		with: VIP		Kb	28.8 nM
COc1ccccc1-c1n[nH]c2nc(NC3CCN(C(=O)Cc4ccc(F)cc4F)CC3)ncc12		bead binding, competition bead pull-down, item: LINJ.34.3890	Leishmania donovani axenic amastigote extract	10 µM	relative to: vehicle	relative abundance	0.85
O=c1ccn([C@@H]2O[C@H](COP(=O)(O)OP(=O)(O)O)[C@@H](O)[C@H]2O)c(=O)[nH]1	toxin B, glucosyltransferase domain (Clostridioides difficile, UniProt A0A9R0CDJ3)					Ki	22600 ± 600 nM
CC(C)(C)C(=O)OCOP(=O)(OCOC(=O)C(C)(C)C)C1CCCN(O)C1=O (stereo not drawn)	K562					GI50	393 nM
O=C1NC2(CC2)COc2ncc(F)cc2[C@H]2COCCN2c2ccn3ncc1c3n2			Sprague-Dawley rat, female, adrenals	oral, 10 mg/kg/day, 4 weeks, end of treatment		organ-to-body weight ratio	0.021 ± 0.004%
CCCCCCCCCCCC(=O)NC1CCOC1=O (stereo not drawn)	Carbonic anhydrase	enzyme activity, inhibitor, stopped-flow				Ki	> 100000 nM
CC[C@H](C)[C@H](NC(=O)[C@@H]1CCCN1C(=O)[C@H](CCC(=O)O)NC(=O)[C@H](CCSC)NC(=O)CNC(=O)[C@H](CC(N)=O)NC(=O)CNC(=O)CNC(=O)[C@H](CCC(=O)O)NC(=O)CNC(=O)[C@H](CCCNC(=N)N)NC(=O)[C@H](CCC(N)=O)NC(=O)[C@H](Cc1ccc(O)cc1)NC(=O)[C@H](CC(C)C)NC(=O)[C@H](CCCCN)NC(=O)[C@@H]1CCCN1C(=O)[C@H](CCC(N)=O)NC(=O)[C@H](C)NC(=O)[C@@H](NC(=O)[C@H](CCC(=O)O)NC(=O)[C@H](C)NC(=O)[C@H](CCC(=O)O)NC(=O)[C@@H](NC(=O)[C@@H]1CCCN1C(=O)[C@@H](N)CCCCN)C(C)C)C(C)C)C(=O)N1CCC[C@H]1C(=O)N[C@@H](CCC(=O)O)C(=O)N[C@@H](CC(=O)O)C(=O)N[C@@H](Cc1ccc(O)cc1)C(=O)N[C@@H](CC(C)C)C(=O)N[C@@H](CCC(N)=O)C(=O)O	F2	enzyme activity, inhibitor, absorbance		pH 8		Ki	0.067 nM
COC(=O)C(=O)[C@H](CC(C)C)NC(=O)[C@H](CCCCN)NC(=O)[C@H](Cc1ccccc1)NC(=O)OCc1ccccc1	hip1, N-terminally truncated (Mycobacterium tuberculosis, UniProt P9WHR3)	inhibitor				Ki	0.089 nM and 0.093 nM and 0.09 nM
CC[C@H](C)[C@H](NC(=O)[C@@H]1CCCN1C(=O)[C@H](CCC(=O)O)NC(=O)[C@H](CCSC)NC(=O)CNC(=O)[C@H](CC(N)=O)NC(=O)CNC(=O)CNC(=O)[C@H](CCC(=O)O)NC(=O)CNC(=O)[C@H](CCCNC(=N)N)NC(=O)[C@H](CCC(N)=O)NC(=O)[C@H](Cc1ccc(O)cc1)NC(=O)[C@H](CC(C)C)NC(=O)[C@H](CCCCN)NC(=O)[C@@H]1CCCN1C(=O)[C@H](CCC(N)=O)NC(=O)[C@H](C)NC(=O)[C@@H](NC(=O)[C@H](CCC(=O)O)NC(=O)[C@H](C)NC(=O)[C@H](CCC(=O)O)NC(=O)[C@@H](NC(=O)[C@@H]1CCCN1C(=O)[C@@H](N)CCCCN)C(C)C)C(C)C)C(=O)N1CCC[C@H]1C(=O)N[C@@H](CCC(=O)O)C(=O)N[C@@H](CC(=O)O)C(=O)N[C@@H](Cc1ccc(O)cc1)C(=O)N[C@@H](CC(C)C)C(=O)N[C@@H](CC(=O)O)C(=O)N[C@@H](CC(=O)O)C(=O)N[C@@H](CCC(=O)O)C(=O)N[C@@H](CO)C(=O)O	F2	enzyme activity, inhibitor, absorbance		pH 8		Ki	0.0839 nM
CCCCCCC(=O)N[C@H]1CCOC1=O	Carbonic anhydrase	enzyme activity, inhibitor, stopped-flow				Ki	> 100000 nM
CCN(CC)C(=O)[C@@H]1C=C2c3cccc4c3c(cn4C(=O)c3ccco3)C[C@H]2N(C)C1	Histamine H3 receptor (Cavia porcellus, UniProt Q9JI35)	ligand displacement, radioligand				Ki	> 10000 nM
CC[C@H](C)[C@H](NC(=O)[C@@H]1CCCN1C(=O)[C@H](CCC(=O)O)NC(=O)[C@H](CCSC)NC(=O)CNC(=O)[C@H](CC(N)=O)NC(=O)CNC(=O)CNC(=O)[C@H](CCC(=O)O)NC(=O)CNC(=O)[C@H](CCCNC(=N)N)NC(=O)[C@H](CCC(N)=O)NC(=O)[C@H](Cc1ccc(O)cc1)NC(=O)[C@H](CC(C)C)NC(=O)[C@H](CCCCN)NC(=O)[C@@H]1CCCN1C(=O)[C@H](CCC(N)=O)NC(=O)[C@H](C)NC(=O)[C@@H](NC(=O)[C@H](CCC(=O)O)NC(=O)[C@H](C)NC(=O)[C@H](CCC(=O)O)NC(=O)[C@@H](NC(=O)[C@@H]1CCCN1C(=O)[C@@H](N)CCCCN)C(C)C)C(C)C)C(=O)N1CCC[C@H]1C(=O)N[C@@H](CCC(=O)O)C(=O)N[C@@H](CC(=O)O)C(=O)N[C@@H](Cc1ccc(OS(=O)(=O)O)cc1)C(=O)N[C@@H](CC(C)C)C(=O)N[C@@H](CC(=O)O)C(=O)N[C@@H](CC(=O)O)C(=O)N[C@@H](CCC(=O)O)C(=O)N[C@@H](CO)C(=O)O	Prothrombin, gamma-thrombin (F2, Homo sapiens, UniProt P00734)			pH 8		Ki	2120 ± 116 nM
CCCCC1CCC(=O)O1 (stereo not drawn)	Carbonic anhydrase	enzyme activity, inhibitor, stopped-flow				Ki	59600 nM
CSCC[C@H](NC(=O)[C@H](CCC(N)=O)NC(=O)[C@H](CCCCN)NC(=O)[C@H](CCCNC(=N)N)NC(=O)[C@H](Cc1ccc(O)cc1)NC(=O)[C@H](CCCNC(=N)N)NC(=O)[C@H](CO)NC(=O)[C@H](Cc1ccc(O)cc1)NC(=O)[C@H](CO)NC(=O)[C@H](CC(=O)O)NC(=O)[C@@H](NC(=O)[C@@H](N)Cc1ccccc1)[C@@H](C)O)C(=O)N[C@@H](C)C(=O)N[C@H](C(=O)N[C@@H](CCCCN)C(=O)N[C@@H](CCCCN)C(=O)N[C@@H](Cc1ccc(O)cc1)C(=O)N[C@@H](CC(C)C)C(=O)N[C@@H](C)C(=O)N[C@@H](C)C(=O)N[C@H](C(=O)N[C@@H](CC(C)C)C(=O)NCC(=O)N[C@@H](CCCCN)C(=O)N[C@@H](CCCNC(=N)N)C(=O)N[C@@H](Cc1ccc(O)cc1)C(=O)N[C@@H](CCCCN)C(=O)N[C@@H](CCC(N)=O)C(=O)N[C@@H](CCCNC(=N)N)C(=O)N[C@H](C(=O)N[C@@H](CCCCN)C(=O)N[C@@H](CC(N)=O)C(=O)N[C@@H](CCCCn1cc(C[C@H](NC(=O)CNC(=O)[C@H](CO)NC(=O)[C@H](CCCNC(=N)N)NC(=O)[C@H](CO)NC(=O)[C@H](CC(C)C)NC(=O)[C@H](CC(C)C)NC(=O)CNC(=O)[C@H](C)NC(=O)[C@H](CC(C)C)NC(=O)[C@H](CCCNC(=N)N)NC(=O)[C@H](Cc2c[nH]cn2)NC(=O)[C@@H](NC(=O)[C@@H](N)C(C)C)[C@@H](C)O)C(=O)N[C@H](C(=O)N[C@H](C(=O)N[C@@H](CCCCN)C(=O)N[C@@H](CC(N)=O)C(=O)N[C@@H](CC(N)=O)C(=O)N[C@@H](Cc2ccccc2)C(=O)N[C@H](C(=O)N2CCC[C@H]2C(=O)N[C@H](C(=O)N[C@@H](CC(N)=O)C(=O)N[C@H](C(=O)NCC(=O)N[C@@H](CO)C(=O)N[C@@H](CCCCN)C(=O)N[C@@H](C)C(=O)N[C@@H](Cc2ccccc2)C(N)=O)C(C)C)[C@@H](C)O)C(C)C)C(C)C)C(C)C)nn1)C(N)=O)C(C)C)C(C)C)C(C)C	ADCYAP1R1	cAMP accumulation, antagonist		with: VIP		Kb	33.9 nM
CCN(CC)C(=O)c1ccc(C(c2cccc(O)c2)N2CC(C)N(Cc3ccccc3)CC2C)cc1 (stereo not drawn)	Delta-type opioid receptor (OPRD1, Homo sapiens, UniProt P41143, S143C)					Ki	0.12 ± 0.02 nM
